Results gathered from unrelated publications.
A part holds a random share of what one study measured. Positions count from the first letter of the parent shown.

Block 1 — technique: protein-binding microarray; form: double-stranded DNA, one strand shown; sample: in vitro; concentration: 250 nM; notes: 60-bp whole probe; added: salmon DNA 0.4 mg/ml; baseline: random background probes; reading: higher = stronger binding; shared flanks, not repeated: GCCTAGCAC … GTCTTGATTCGCTTGACGCTGCTG
Target: Interferon regulatory factor 7, full length, phosphomimetic (IRF7, Homo sapiens, UniProt Q92985, residues 1-503, S101K/S471D/S472D/S475D/S476D/S477D/S483D/S484D/S487D)
Sequence of UniProt Q92985 (whole entry, unmodified, looked up): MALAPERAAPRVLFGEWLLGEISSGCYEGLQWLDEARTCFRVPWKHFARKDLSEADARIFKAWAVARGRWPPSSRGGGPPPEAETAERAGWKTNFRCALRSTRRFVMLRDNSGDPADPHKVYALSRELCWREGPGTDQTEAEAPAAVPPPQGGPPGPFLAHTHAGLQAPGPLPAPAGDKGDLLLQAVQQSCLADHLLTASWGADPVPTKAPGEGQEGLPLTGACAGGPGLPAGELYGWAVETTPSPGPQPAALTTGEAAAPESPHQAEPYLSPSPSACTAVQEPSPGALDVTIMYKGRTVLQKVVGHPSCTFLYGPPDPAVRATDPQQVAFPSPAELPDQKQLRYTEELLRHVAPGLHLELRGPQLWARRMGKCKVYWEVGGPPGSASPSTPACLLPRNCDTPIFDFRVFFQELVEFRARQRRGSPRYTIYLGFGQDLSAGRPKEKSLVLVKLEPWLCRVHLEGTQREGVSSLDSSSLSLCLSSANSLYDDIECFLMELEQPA
| Strand | log fluorescence [z-score] |
| --- | --- |
| TTAGATTTCAGTATCGAGTAGTGCTAG | 0.6 |
| TCAGTTTTAAATAGGGCACTGTGCTAG | 0.67 |
| GACGGACTGGATTATCGGGACGTGCTA | -0.3 |
| TTAGGTATCGACTTTCCGTTAGTGCTA | 1.77 |
| TTAGATTTTAGACTGGATTAGTGCTAG | -0.0794 |
| CCAGACTTGATTTTGGTCTTGTGCTAG | -0.151 |
| TTAGAACTGGGGACTGGATCAGTGCTA | -0.545 |
| CTGGATCTCAGACTGTGTCCGTGCTAG | -0.147 |
| GACGGTCTCGGACTGTGGACGTGCTAG | -0.168 |
| GACGGTTTCGGGTAGCGGGACGTGCTA | 7.94 |
| CCCACCATCTAGTTCTGCTTGTGCTAG | -0.00028 |
| GACGGTATCTTACTGCTGACGTGCTAG | -0.416 |
| TTAGAACTGAGTATCAATTAGTGCTAG | -0.341 |
| ATGCTACAATAAGTGTTAGTGTGCTAG | -0.369 |
| GACGATTTCTGGTTTCGAGACGTGCTA | 5.06 |
| TTAGGACTGAGTTTCGATTAGTGCTAG | 7.8 |
| GTCGGTTTCGACTTTCGGGACGTGCTA | 12.1 |
| TCATGTTTGTCACTCTCAGAGTGCTAG | 0.73 |
| TACGATTTCGGGTTTCGAGACGTGCTA | 4.48 |
| TTAGGTTTCGGACCGGGTTAGTGCTAG | 2.62 |
| TATGTTCACTATTTAAGGCCGTGCTAG | 0.912 |
| GTAAACCATCCAAATGTTATGTGCTAG | -0.0589 |
| GACGATCTCAGAATGGAGACGTGCTAG | -0.168 |
| GACGGACTGGACTTTAGGGACGTGCTA | -0.76 |
| GACGGTTTCGGGTTTTGGGACGTGCTA | 9.96 |

Block 2 — target: CCNB3, cyclin fold, Cln2 fusion (human); technique: yeast growth competition, sequencing; sample: yeast; notes: weak parent motif; baseline: not given; reading: higher = stronger binding
Starting sequence: MASTL docking peptide (human); PMIAKNLMCELDE
| Substitution | normalised enrichment score |
| --- | --- |
| PMIAVNLMCELDE [K5V] | 0.14 |
| PMWAKNLMCELDE [I3W] | -0.175 |
| PMIAHNLMCELDE [K5H] | -0.244 |
| PMIAKNLMKELDE [C9K] | -0.249 |
| PMIAKNLSCELDE [M8S] | 0.0022 |
| PMIAKNLMCEMDE [L11M] | -0.481 |
| PMIAKNLNCELDE [M8N] | -0.108 |
| PAIAKNLMCELDE [M2A] | -0.244 |
| PMIAKNLMCALDE [E10A] | 0.21 |
| PMIAKNCMCELDE [L7C] | 0.143 |
| PMIAKNLMCELME [D12M] | 0.217 |
| PMIAANLMCELDE [K5A] | -0.0396 |
| PMIAKWLMCELDE [N6W] | 0.522 |
| PMIAKNLMCENDE [L11N] | -0.208 |
| PMIAKNLMCELAE [D12A] | 0.207 |
| PMIAKNLMCEHDE [L11H] | 0.0418 |
| PMIAKNLYCELDE [M8Y] | -0.0546 |
| PMIAKNLMCELIE [D12I] | -0.416 |
| PMIAKNLMHELDE [C9H] | -0.166 |
| PMIAKNLQCELDE [M8Q] | -0.0621 |
| PMIAKNQMCELDE [L7Q] | -0.168 |
| PMIAKNLMCEFDE [L11F] | -0.268 |
| PMEAKNLMCELDE [I3E] | -0.188 |
| PMIAKNLMCERDE [L11R] | -0.154 |
| PMIAKILMCELDE [N6I] | 0.00403 |

Block 3 — technique: DHFR PCA, deep sequencing; sample: yeast; added: (+)-ABA 2500 µM; baseline: wild-type fitted maximum; reading: higher = stronger binding
Target: ABI1, truncated, D143A, DHFR fusion (Arabidopsis thaliana)
Notes: methotrexate growth selection, single substitutions
Starting sequence: PYL1, truncated, DHFR fusion (Arabidopsis thaliana); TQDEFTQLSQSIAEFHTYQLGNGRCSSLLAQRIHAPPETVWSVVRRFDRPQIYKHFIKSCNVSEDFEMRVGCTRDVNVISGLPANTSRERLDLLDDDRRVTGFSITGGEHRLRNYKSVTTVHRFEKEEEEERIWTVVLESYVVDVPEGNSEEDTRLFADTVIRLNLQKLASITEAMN
| Substitution | relative binding score [%] |
| --- | --- |
| T73A | 96.8 |
| V161Q | 57.2 |
| L94E | 45 |
| V118K | 106 |
| Q31H | 96.4 |
| K126D | 100 |
| T6K | 111 |
| F56C | 89.9 |
| L164H | 95.7 |
| A13L | 102 |
| N22R | 103 |
| Q19K | 106 |
| K54V | -7.8 |
| E129N | 105 |
| N165H | 83.4 |
| A158F | 73.7 |
| D153I | 33 |

Block 4 — technique: RNA Bind-n-Seq; form: RNA; sample: in vitro; concentration: not given; notes: RNA with constant flanks, ends assumed; baseline: input RNA pool; reading: higher = stronger binding
Target: RING finger protein unkempt homolog, zinc fingers 1-6, GST-SBP tag (UNK, Homo sapiens, UniProt Q9C0B0, residues 30-357)
Sequence of UniProt Q9C0B0 (30-357, looked up): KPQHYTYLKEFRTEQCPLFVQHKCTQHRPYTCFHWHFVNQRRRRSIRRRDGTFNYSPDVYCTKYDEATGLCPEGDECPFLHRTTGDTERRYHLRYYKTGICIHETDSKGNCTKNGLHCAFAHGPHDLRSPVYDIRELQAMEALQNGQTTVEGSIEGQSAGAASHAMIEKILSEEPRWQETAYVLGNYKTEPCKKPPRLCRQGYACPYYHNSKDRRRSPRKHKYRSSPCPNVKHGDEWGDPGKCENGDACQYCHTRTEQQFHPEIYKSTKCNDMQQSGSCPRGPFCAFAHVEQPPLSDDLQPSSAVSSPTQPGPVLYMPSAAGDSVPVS
Shared flanks, not repeated: GGGAGUUCUACAGUCCGACGAUC … CAACAGAGGAUUGAGCAUCA
| Strand | bound/input enrichment [ratio] |
| --- | --- |
| AAGUCCCUGUUAUACUGAGUCAAAUCCAUUUUCUGGGUGAAUAAAUUUGGCCCUGCAGUGCCGCUCUUGUUCACCCUUUCCUUCCUUGGUGUUGUGUGUGAGAGAUGAGUGUUUUCCUGU | 0.156 |
| ACUAACAAAAGUGCCUCAUGAUAAAAGUACAUUUGAUUUUUAGGGUGCCAUAUUGUUAAAAUCCGAAAAUUGAAUAAAUGAAUGCAUUUUAUCAGUAACAAGUUUCCUUCCAUUUACCAG | 0.22 |
| GAGGUAUUGGAAGCCUUGUAUGAUGGUAGCCUAGGAGACUGUAAAGAAGCUGCUGAAAUUUACCGAGCAAAUUGUCAUAAGCUUUUCCCUUAUGCUUUGGCUUUCAUGCCUCCUGGAUAU | 0.226 |
| GUGGCUGCUUUCUUUGGUACUCUCUCUCCACUCCCAACGUAGCUGUGACGUGUUGCCGUUUUCCGCUGUUUGUAAAAUGUUAAAAAAAAAAAAAGUUAAAAGGAAGUUAAACUAACCACA | 1.56 |
| UGGGAUGAAAAUCUCAAAGAUGAUUCUCUUCCUGAAAAUCCAAUAGACUUUUCUUACAGAGCCGCUGCUUGUCUUCCUAUUGAUGAUGUAUUGAGAAUUCAGCUCCUUAAAAUCGGCAGU | 0.2 |
| UAAAUGUUCCCGCUGUGUCCCUGGAUAUGGAAUAAGCAGGUAUAAAAAAUAUUUUAAUUACCGUUUUGUUAUAAAUAUAACUUAUGAGAAAAAAAUUUGAUAGGAAUAAUACUGUAUAUU | 2.76 |
| CGCAUUUUGAUGGUUGGAUUGGAUGCUGCUGGCAAGACGACAAUUCUGUAUAAACUGAAAUCCGGGGAAAUAGUCACCACCAUUCCUACCAUUGGUUUUAAUGUGGAAACAGUAGAAUAU | 0.49 |
| GAAUGCAGUUAUAUUUGGACCAGAAGGGACACCUUUUGAAGAUGGUACUUUUAAACCCGUAACCGAAUUUUCUGAAGAAUAUCCAAAUAAACCACCAACUGUUAGGUUUUUAUCCAAAAU | 0.226 |
| CAUACUUGAACAUUUGUAUCGACUGCAUUGUCUCUCUUUUUUUGGCUAUAAUUAUUCACCUUCCGCUUUUGUCUCUUGUGCAUGCUAUCACAGUUUUGCUUGUAUUUUUAGCAUAUGAAC | 0.516 |
| AAUGUGACUUCCAUGAUAAACCUAAAGAAGACUACUUCAUCAGCUGAUGCUAAAAAUGUCCGUGUGACAUCUGAGGCUUUAUCUUCAAAUCCUUCCUACAACAGAGAAAAGCGUGUUUAU | 0.107 |
| AAGGAGUAAGCAAAUUGGAGGUGGAGGGUGGGCCUCACCUUAUACUACAAUCAAACCUUGCCGUUUGGGGUGUUUUGUUUGUUUGUUUUGUAUUGUAUUGUUUUUAAACAAGUCUAGCCA | 0.403 |

Block 5 — target: MAFK, bZIP domain (human); technique: DHFR protein complementation; sample: yeast; baseline: wild-type JUN-FOS pair; reading: higher = stronger binding
Notes: single substitutions, most at no-binding floor
Starting sequence: JUN, bZIP domain (human); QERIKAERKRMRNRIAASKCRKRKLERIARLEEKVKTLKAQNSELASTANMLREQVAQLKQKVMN; partner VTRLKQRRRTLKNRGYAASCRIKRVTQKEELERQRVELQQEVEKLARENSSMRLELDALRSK
| Substitution | binding fitness [natural log] |
| --- | --- |
| L38D | -1.47 |
| K39V | -1.42 |
| K39C | -1.45 |
| R30M | -1.48 |
| S43Q | -1.52 |
| E32T | -1.49 |
| A57M | -1.55 |
| I28M | -1.43 |
| S47V | -1.45 |
| E32R | -1.44 |
| L45T | -1.49 |
| R53F | -1.49 |
| E54N | -1.45 |
| A57Q | -1.52 |
| T37A | -1.43 |
| K34G | -1.48 |
| A40H | -1.36 |
| V35N | -1.55 |
| E54L | -1.43 |
| A29K | -1.26 |
| R30S | -1.44 |
| K34L | -1.49 |
| V35C | -1.57 |
| Q41I | -1.4 |
| K39L | -1.52 |
